Measured values gathered from unrelated publications.
A part holds a random share of what one study measured. Substitutions count along the parent as printed.

Sample 1
Target: Phosphate system positive regulatory protein PHO4, full length, GST-tagged (PHO4, Saccharomyces cerevisiae, UniProt P07270, residues 1-312)
Method: competition protein-binding microarray
Molecule type: double-stranded DNA, one strand shown
Matrix: in vitro
Concentration: 2 µM
Notes: whole 60-bp probe, lowest competitor level
Added: Cbf1 competitor, 0.05 µM
Direction: higher = stronger binding
Constant ends, left off below: … GTCTTGATTCGCTTGACGCTGCTG
Construct (chain): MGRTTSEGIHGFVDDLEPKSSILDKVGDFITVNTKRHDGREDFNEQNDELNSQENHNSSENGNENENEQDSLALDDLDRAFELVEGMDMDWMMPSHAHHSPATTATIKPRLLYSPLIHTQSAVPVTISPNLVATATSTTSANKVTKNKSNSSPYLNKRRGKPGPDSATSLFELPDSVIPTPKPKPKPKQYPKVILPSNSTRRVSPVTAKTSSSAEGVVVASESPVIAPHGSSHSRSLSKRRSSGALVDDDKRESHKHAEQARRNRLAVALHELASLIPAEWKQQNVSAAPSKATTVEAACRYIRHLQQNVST
| Oligonucleotide | fluorescence intensity [a.u.] |
| --- | --- |
| CGGGGTTAAGTTTTTCACGTGGGGTGCTTGCAGCAG | 15200 |
| CTTTCCCGATCTTTACACGTGTTTTTAGCACATTTG | 18600 |
| AACCTCGGGGCTTGGGGCGTGGGACATCGAAAGGGG | 10100 |
| CGGGGTTAAGTTTGTCTAGTGGGTGGCTTGCAGCAG | 4910 |
| TAAAACCTCGTCTGAATCGTGATGGCCCTCAGAATC | 3280 |
| TTATTTTATCAGAGCACCGTGGTCGACATCCAACGG | 7680 |
| CTAACGAAGGTTTGTTTAGTGGGTGACAAGCCAAGT | 3680 |
| TGCGCAACAACTTGCGGTGTGGGTGTATGTCTAGAA | 5580 |
| CTAACGAAGGTTTGTCACTTCACTTACAAGCCAAGT | 3040 |
| CTTCTGTAAATTTGAATAGTGGGTGGACGCGCCCCG | 4430 |
| CTTCTGTAAATTTGAAACGTGGGTGGACGCGCCCCG | 13200 |
| CCGAGACATCTTAGTCAGCTGAGACAAGAAAGGCAA | 2100 |
| AAATTACTAAGTTGTCACCTCACTTACCCCGTATGA | 3180 |
| TAAAGGTGAGTATGGCATGTGGTGGTGGGATTAGAG | 12400 |

Sample 2
Target: Interferon regulatory factor 5, full length, phosphomimetic (IRF5, Homo sapiens, UniProt Q13568-2, residues 1-514, K96S/S451D/S453D/S456D/S462D)
Method: protein-binding microarray
Molecule type: double-stranded DNA, one strand shown
Matrix: in vitro
Concentration: 250 nM
Notes: 60-bp whole probe
Added: salmon DNA 0.4 mg/ml
Baseline: random background probes
Direction: higher = stronger binding
Constant ends, left off below: GCCTAGCAC … GTCTTGATTCGCTTGACGCTGCTG
| Oligonucleotide | log fluorescence [z-score] |
| --- | --- |
| TTAGGTTTCCGTCTCGGTTAGTGCTAG | 1.83 |
| TCAAATCTCTCATGTTACACTGTGCTA | 0.716 |
| TCATCAATCATTTTCGTACTGTGCTAG | 2.39 |
| GACGATATCGCGACTGGAGACGTGCTA | 0.163 |
| ATATATTTATGTATACACACGTGCTAG | 0.713 |
| TTAGAAATGAGTCTCGATTAGTGCTAG | 1.1 |
| GATATTATATCTGTGTTATTGTGCTAG | 1.41 |
| GACGGTCTCGGGCTCGGGACGTGCTAG | -0.439 |
| GACGGTATAGGTATCGGGACGTGCTAG | 0.524 |
| TAAGGTCTCGGTATCGGTTAGTGCTAG | 5.48 |
| GACGAACTGAGTCTCGAGAAGTGCTAG | -0.257 |

Sample 3
Target: Histone acetyltransferase KAT6A, winged helix 1, GST fusion (KAT6A, Homo sapiens, UniProt Q92794, residues 1-85)
Method: protein binding microarray
Molecule type: double-stranded DNA, one strand shown
Matrix: in vitro
Concentration: not given
Notes: 8-mer, flanks averaged, mean of 2 arrays, mostly near background
Baseline: not given
Direction: higher = stronger binding
Residues (chain): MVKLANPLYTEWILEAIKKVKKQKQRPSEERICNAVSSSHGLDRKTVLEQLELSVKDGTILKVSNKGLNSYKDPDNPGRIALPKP
| Oligonucleotide | E-score |
| --- | --- |
| ATTCTATA | -0.0123 |
| CCCAGACA | -0.243 |
| CCCGAGGA | 0.00524 |
| TAGACCGA | -0.016 |
| CACCCGCG | 0.424 |
| ACGAAGGG | -0.207 |
| ATTAATGC | 0.0336 |
| CTCAGACA | -0.0605 |
| CCAAGCCC | -0.0179 |
| ACCCCTTA | -0.0799 |
| CCCACCGG | 0.276 |
| GGCAAGAA | -0.112 |
| ATCCCATA | -0.0982 |
| CATCCCGA | 0.0835 |
| CACCGATC | 0.0806 |
| CCATAGTA | -0.151 |

Sample 4
Target: Ras GTPase-activating protein-binding protein 1, C-terminal RGG region (G3BP1, Homo sapiens, UniProt Q13283)
Chain of UniProt Q13283 (whole entry, looked up): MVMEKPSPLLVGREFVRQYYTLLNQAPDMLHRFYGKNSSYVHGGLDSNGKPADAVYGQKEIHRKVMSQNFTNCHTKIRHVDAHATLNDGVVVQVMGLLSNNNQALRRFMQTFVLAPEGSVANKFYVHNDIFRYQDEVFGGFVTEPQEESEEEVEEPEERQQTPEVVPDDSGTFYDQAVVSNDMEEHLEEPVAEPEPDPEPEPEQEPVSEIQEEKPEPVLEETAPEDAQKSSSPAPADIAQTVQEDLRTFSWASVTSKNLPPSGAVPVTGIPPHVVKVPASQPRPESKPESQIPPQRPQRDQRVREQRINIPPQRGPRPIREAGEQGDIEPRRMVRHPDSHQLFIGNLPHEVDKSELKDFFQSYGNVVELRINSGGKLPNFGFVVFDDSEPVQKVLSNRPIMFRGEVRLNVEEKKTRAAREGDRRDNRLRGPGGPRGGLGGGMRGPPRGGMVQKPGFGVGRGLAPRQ
Method: RNA Bind-n-Seq
Molecule type: RNA
Matrix: in vitro
Concentration: 1 µM
Notes: whole 134-nt RNA, ends assumed
Added: 150 mM KCl
Baseline: input library
Direction: higher = stronger binding
Constant ends, left off below: GGGAGUUCUACAGUCCGACGAUC … UGGAAUUCUCGGGUGUCAAGG
| Oligonucleotide | log2 enrichment |
| --- | --- |
| UAACUUUAGAGGAGGAUCUGAUGGAUAUGGCAGUGGACGUGGAUUUGGGGAUGGCUAUAAUGGGUAUGGAGGAGGACCUGGAGGUGCCAA | -0.623 |
| CCUCAAGUCCUGUGCUACACAUCGUAUGUACCGAAUCGGGUGGGGUGGGUGGAAAGUAUUAUGUUACGCCGUUCGGAUCUGCACUUCCAG | 1.45 |
| UCCUGUGCUACACAUCGUAUGUACCGAAUCGGGGAAAAAAAGGGGUUUUUGGGGAGGGGAAAGUAUUAUGUUACGCCGUUCGGAUCUGCA | 1.67 |
| UUAGAAGAAGUGGAAAGGAAAAAACGCCAAAGGGAGUUGGAAAUUGAAGAACGAGAACGGCGUAGAGAGGAAGAGAGAAGACUUGGCGAU | -0.295 |
| AGUCCUGUGCUACACAUCGUAUGUACCGAAUCGGUUUUUGGGUUUUUGGGGUUUUUGGAAAGUAUUAUGUUACGCCGUUCGGAUCUGCAC | -1.16 |
| GUCCUGUGCUACACAUCGUAUGUACCGAAUCGGUUUUUUUGGAAAAAAAGGUUUUUGGAAAGUAUUAUGUUACGCCGUUCGGAUCUGCAC | -1.95 |
| CCUGUGCUACACAUCGUAUGUACCGAAUCGGGGAAAAAAAGGGGUUUGGGGUUUUUGGGGAAAGUAUUAUGUUACGCCGUUCGGAUCUGC | 1.51 |
| GCAGGAAGUAAAAACAAAUGGAAAUGCUUCGGAUAGUGGCAUGGGUGGGGGUUGCUAAGGAAAGGGUGGGAUGGGAGUGGGUAAAGAGUU | 0.96 |
| CCUGUGCUACACAUCGUAUGUACCGAAUCGGGGUUUUUUGGUUUUUUGGGUUUUUUGGGGAAAGUAUUAUGUUACGCCGUUCGGAUCUGC | -1.8 |

Sample 5
Target: CCND2, cyclin fold, Cln2 fusion (human)
Method: yeast growth competition, sequencing
Matrix: yeast
Notes: weak parent motif
Baseline: not given
Direction: higher = stronger binding
Starting sequence: CDC25A docking peptide (human); PPHRRRLLFACSP
| Variant | normalised enrichment score |
| --- | --- |
| PPHRRPLLFACSP [R6P] | -0.0894 |
| PPHRRRLLFAQSP [C11Q] | 0.33 |
| PPHRRRLLFACSI [P13I] | 0.208 |
| RPHRRRLLFACSP [P1R] | 0.0402 |
| PPHRRRLLYACSP [F9Y] | 0.145 |
| PPHRRRLLFACEP [S12E] | 0.214 |
| PPHRRRLQFACSP [L8Q] | -0.154 |
| PPHRRTLLFACSP [R6T] | 0.265 |
| PPHRRRLLFNCSP [A10N] | 0.0451 |
| PAHRRRLLFACSP [P2A] | 0.155 |
| PPHRRRLLFAASP [C11A] | 0.343 |
| PPHRRRLNFACSP [L8N] | 0.104 |
| PPHRRRCLFACSP [L7C] | 0.194 |
| PPHRRRLKFACSP [L8K] | 0.241 |
| PPHRRRYLFACSP [L7Y] | 0.0182 |
| PFHRRRLLFACSP [P2F] | 0.113 |
| PPHRRRLLFLCSP [A10L] | -0.296 |
| PPHRRRLAFACSP [L8A] | 0.0866 |

For quick reference, copied from above (sample 5):
| Variant | normalised enrichment score |
| --- | --- |
| PPHRRRLLYACSP [F9Y] | 0.145 |
| PPHRRRLLFACEP [S12E] | 0.214 |
| PPHRRRLQFACSP [L8Q] | -0.154 |
| PPHRRTLLFACSP [R6T] | 0.265 |
| PPHRRRLLFNCSP [A10N] | 0.0451 |
| PAHRRRLLFACSP [P2A] | 0.155 |
| PPHRRRLLFAASP [C11A] | 0.343 |
| PPHRRRLNFACSP [L8N] | 0.104 |
| PPHRRRCLFACSP [L7C] | 0.194 |
| PPHRRRLKFACSP [L8K] | 0.241 |
